Published values pooled from the literature.
Each line is one published result; not all experiments were run side by side. “And” joins repeats or separate records; there may be more than shown. ± marks the error that the study gave.

CCc1n(Cc2ccc3ccccc3n2)cc[n+]1Cc1ccc2ccccc2c1.[Br-] gave a TGI of no less than 0.671 µM (NSCLC cell lines; lower end of range).
CCn1cc(-c2cc(Cn3ccoc3=N)cc3c2CCN([C@@H](C)c2cc(OC)ccn2)C3=O)c(C(F)(F)F)n1 has an EC50 of 8.91 µM (NCI-H2228; cell growth, inhibitor; 120 h).
The maximum inhibition of C=CC(=O)N1CCC[C@@H](c2ccc(C(N)=O)c3[nH]ccc23)C1 is reported as 42.3% (TMD8 wild-type; calcium flux, FLIPR; 2 h preincubation, added: anti-IgM).
C=C(C)[C@@H]1CC[C@]2(C)CC[C@]3(C)[C@H](CC[C@@H]4[C@@]5(C)CC[C@H](O)C(C)(C)[C@@H]5CC[C@]43C)[C@@H]12: “nitric oxide production inhibition” “inactive” (SIM-A9 mouse microglia; Griess; 10.7 µM, added: LPS 100 ng/mL).
For Cn1cc(-c2ccc(-c3cncc(Cl)c3N3CCC4(CCNC4=O)CC3)cc2)cn1, “log2 fold change” read 2.28 (COLO 205; gene expression, microarray, item: CASP1 mRNA; concentration not given, 6 h; reference: untreated cells).
C=CC1=C(C)c2cc3[n-]c(cc4nc(cc5[n-]c(cc1n2)c(C)c5C=C)C(C)=C4CCC(=O)O)c(CCC(=O)O)c3C.[Zn+2] gave a fold change of 2.16 (SH-SY5Y; RNA-seq, item: CD274 mRNA; 5 µM, 5 h; reference: untreated cells).
For Cc1cc(Nc2ncc(Cl)c(Nc3ccccc3S(=O)(=O)C(C)C)n2)c(OC(C)C)cc1C1CCNCC1, “log2 fold change” read -3.02 (CLB-GE; phosphoproteomics LC-MS/MS, item: CCT2 phosphorylation; 200 nM, 60 min; reference: untreated).
With CC(C)NCC(O)c1ccc(O)c(O)c1 (stereo not drawn) the sarcomere length was 1.8 µm (mouse ventricular cardiomyocytes; dose not given, 0.039 s).
The IC50 of CCCCN1C[C@H](O)[C@@H](O)[C@@H](O)[C@H]1CO is reported as 16 µM (sample B patient fibroblasts; GlcCer level lowering, LC-MS/MS, item: GlcCer d18:1/16:0; 216 h).
O=C(Nc1c(Cl)cncc1Cl)c1ccc(OC(F)F)c(OCC2CC2)c1 — result for “cAMP level difference”: -2.61 (PBMC; MSD; 0.01 µM, unit not given, added: PGE2; reference: DMSO).
Nc1cccc2c1C(=O)N(C1CCC(=O)NC1=O)C2=O (stereo not drawn) gave a viability of 100% (bone marrow CD138+ myeloma cells; XTT; 0.2 µM, mean of three patients).
Cn1c(Nc2nc3ccc(C(F)(F)F)cc3s2)nc2cc(C(=O)NCCOCCO)ccc21 gave a fold change of 2.33 (SH-SY5Y; RNA-seq, item: ELL2 mRNA; 5 µM, 5 h; reference: untreated cells).
With C=CC(=O)Nc1cc(Nc2ncc(C(=O)OC(C)C)c(-c3cn(C)c4ccccc34)n2)c(OC)cc1N(C)CCN(C)C the selectivity ratio was 1.4 (NCI-H2073 EGFR ASV knock-in; cell proliferation, CellTiter-Glo; reference: knock-in over parental NCI-H2073).
O=C(/C=C/C=C/C=C/C1CCCCC1)NC1=C[C@@](O)(/C=C/C=C/C=C/C(=O)NC2=C(O)CCC2=O)[C@@H]2O[C@@H]2C1=O has a GI50 of 8.95 µM (Lu-99; cell growth, CellTiter-Glo; 78 h).
For CC(=O)c1c(O)c(C)c(O)c2c1OC1=CC(=O)C(C(C)=O)C(=O)C12C (single isomer, unassigned; (+)), the IC50 was 54 µM (hepatocytes, iPSC-derived, line W3; cell viability; 24 h).
For COc1ccc(-c2coc3cc(O)cc(O)c3c2=O)cc1, the TEER was no more than 120% (Caco-2 monolayers; 100 µg/mL, 15 min; reference: 0 min value).
Cc1cccc(-c2[nH]c(CNc3ccccc3F)nc2-c2ccc3ncnn3c2)n1 gave a viability of 9% (bone marrow CD138+ myeloma cells; XTT; 1.6 µM, phenol red-free RPMI).
The growth of OCc1n(Cc2ccc3ccccc3c2)cc[n+]1Cc1ccc2ccccc2c1 is reported as 60.7% (NSCLC cell lines; 10 µM, average over cell lines; reference: untreated).
CCn1cc(-c2cc(Cn3ccnc3)cc3c2CCN([C@H](c2cc(OC)ccn2)C2CC2)C3=O)c(C(F)(F)F)n1 has an EC50 of greater than 30 µM (SW1271; cell growth, inhibitor; 120 h).
Cc1ccc(CNC(=O)Cn2cc(CSc3nc4ccccc4[nH]3)nn2)cc1 gave a cytotoxicity of 19.9% (HEK293; MTT; 3.91 ppm).
Under “mean growth percentage”, COC(=O)c1ccc2c(c1)n(Cc1ccc3ccccc3c1)c[n+]2Cc1ccc2ccccc2c1 is recorded as 45.2% (NSCLC cell lines; NCI60 one-dose screen; 10 µM).
With CC(C)C(=O)Nc1n[nH]c2cc(-c3cccc(NS(=O)(=O)C4CC4)c3)ccc12 the LRP6-positive cells was 21% (HEK293T; flow cytometry, item: surface LRP6; concentration not given, 8 h, added: WNT3A).
CC(=O)Nc1cccc(-n2c(=O)n(C3CC3)c(=O)c3c(Nc4ccc(I)cc4F)n(C)c(=O)c(C)c32)c1: “average fractional effect” 30% (LoVo (KRAS G13D); cell viability, resazurin; 6.25 nM, 72 h; reference: DMSO).
The mRNA level of COc1cc(/C=C/C(=O)N2CCC=CC2=O)cc(OC)c1OC is reported as 98.7 ± 12.1% (MDA-MB-468; quantitative RT-PCR, item: GPX4; 30 µM, 8 h; reference: untreated cells).
CC/C(=N\NC(=O)C(C)Nc1ccccc1)c1ccc(O)c(C)c1O (stereo not drawn): “TAZ band intensity” 0.17 ± 0.01 (SK-OV-3; Western blot; 10 µM, 3 h, 3D gellan gum culture, unit not given; reference: DMSO).
The Emax of CC/C(=C(\c1ccc(O)cc1)c1ccc(OCCN(C)C)cc1)c1ccccc1 is reported as 1.1% (MCF7 3xERE-luc, steroid-deprived; ERE luciferase reporter, agonist; reference: vehicle).
COc1cc(C(=O)O[C@@H]2CCCOc3cc(cc(OC)c3OC)C(=O)NCCCN3CCCN(CC2)CC3)cc(OC)c1OC gave a specific killing of 55.4% and 91.8% and 66.8% (CMV-specific PBMC; concentration not given, added: ATP, NLVPMVATV-pulsed T2 cells; reference: control without ATP).
For CCN1[C@@H](C(=O)NC23CCC(C(=O)O)(CC2)CC3)[C@H](c2cccc(Cl)c2F)[C@]2(C(=O)Nc3cc(Cl)ccc32)C12CCCCC2, the GI50 was 0.066 µM (well-differentiated liposarcoma cells (MDM2 amplified); cell proliferation, alamarBlue; 72 h).
CNC(=O)c1ccc(N2C(=S)N(c3ccc(C#N)c(C(F)(F)F)c3)C(=O)C2(C)C)cc1F has an inhibition of 34.3% (VCaP; cell proliferation, CCK-8; 4000 nM).
With C=CC(=O)N1CCC([C@@H]2CCNc3c(C(N)=O)c(-c4ccc(Oc5ccccc5)cc4)nn32)CC1 the maximum inhibition was 89.4% (TMD8 wild-type; calcium flux, FLIPR; 1 h preincubation, added: anti-IgM).
COc1ccc(-n2nc(C(C)=O)s/c2=N\N=C(/C)c2ccc(NC(=O)c3ccccc3)cc2)cc1 has a viability of 36% (MCF7; 0.156 µM).
For CCOc1ccc(-c2nc3cc(-c4nc5cc(N6CCN(C)CC6)ccc5[nH]4)ccc3[nH]2)cc1OCC, the growth percent was -42.7% (SF-539; SRB; 10 µM, 48 h).
CCCCc1nc(Cl)c(CO)n1Cc1ccc(-c2ccccc2-c2nn[nH]n2)cc1 — result for “log2 fold change”: -2.27 (human PBMC; RNA-seq, item: NIPAL1 mRNA; 10 µg/mL, 24 h; reference: untreated control).
COc1cnc2cccc(N3CCc4c(cc(Cn5ccnc5C)cc4-c4cn(C)nc4C(F)(F)F)C3=O)c2c1 has an EC50 of 1.33 µM (SNU-398; cell growth, inhibitor; 120 h).
Cn1cc(C(=O)C(=O)NCCc2c[nH]c3ccccc23)c2ccccc21: cytotoxicity “not toxic” (BxPC-3, MDA-MB-231, PC-3, HeLa, C4-2, HEK293T; MTT; 100 µM).
CC(=O)Nc1cc(Oc2ccc3c(nc(Nc4ccc(F)cc4F)n3C)c2C)ccn1 — result for cell proliferation: “inhibited” (MUTZ5 B-ALL cells; CellTiter-Glo; concentration not given, 3 d).
For COc1cccc(C2CC(c3ccccc3Cl)Nc3ncnn32)c1 (stereo not drawn), the maximum inhibition was 3% (MEF with TRE-FLAG-LMNB1; LMNB1 level, high-content screening; 150 µM).
c1cnc2c(c1)ccc1cccnc12 — result for “TNF-α mRNA level”: “decreased” (HEK293T; 25 µg/mL; reference: albendazole).
Under “S phase mitotic cells”, C=CCn1c(=O)c2cnc(Nc3ccc(N4CCN(C)CC4)cc3)nc2n1-c1ccc2c(n1)[C@@](O)(CC)CC2 is recorded as 1.65% (MDA-MB-231; flow cytometry; concentration not given).
Cn1cc(-n2cnc3c(NCc4nc5cc(Cl)c(Cl)cc5[nH]4)nc(N4CCOCC4)nc32)cn1 has a mRNA level of 0.63 (MDA-MB-231; qRT-PCR, item: RAD51; 50 nM, 6 h, unit not given; reference: untreated).
With C[C@H](NC(=O)C(=O)Nc1ccccc1C(C)(C)C)C(=O)N[C@@H](CC(=O)O)C(=O)COc1c(F)c(F)cc(F)c1F the LDH release was 20.9% and 17.4% and 16.3% (THP-1 CASP1 knockout, LPS-primed; inhibitor; 25 µM, 2 h, added: nigericin 6.25 µM).
Under “mean growth percentage”, c1ccc2cc(Cn3c[n+](Cc4ccc5ccccc5c4)c4ccccc43)ccc2c1 is recorded as 1.29% (NSCLC cell lines; NCI60 one-dose screen; 10 µM).
For CC/C(=N\NC(=O)NCc1cccc(O)c1)c1ccc(O)c(C)c1O, the log ratio was -2.76 (SK-OV-3; gene expression, microarray, item: DHRS3; 10 µM, 24 h; reference: DMSO).
Under “cAMP level difference”, C=C[C@@]1(C)CC(=O)[C@]2(O)[C@@]3(C)[C@@H](O)CCC(C)(C)[C@@H]3[C@H](O)[C@H](OC(C)=O)[C@@]2(C)O1 is recorded as -1.58 (PBMC; MSD; 0.001 µM, unit not given, added: PGE2; reference: DMSO).
CCc1cnc(N2CCC(c3nc(COc4ccc(-n5cnnn5)cc4)cs3)CC2)nc1 — result for “normalized enrichment score”: 0.929 (HEK-293T; RNA-seq GSEA, item: HALLMARK_PANCREAS_BETA_CELLS; concentration not given; direction not given).
